Results gathered from unrelated publications.
A part holds a random share of what one study measured. Values joined by “and” are separate records of one study, mostly repeats; a detail may differ.
Sequence of UniProt Q16853 (whole entry, looked up): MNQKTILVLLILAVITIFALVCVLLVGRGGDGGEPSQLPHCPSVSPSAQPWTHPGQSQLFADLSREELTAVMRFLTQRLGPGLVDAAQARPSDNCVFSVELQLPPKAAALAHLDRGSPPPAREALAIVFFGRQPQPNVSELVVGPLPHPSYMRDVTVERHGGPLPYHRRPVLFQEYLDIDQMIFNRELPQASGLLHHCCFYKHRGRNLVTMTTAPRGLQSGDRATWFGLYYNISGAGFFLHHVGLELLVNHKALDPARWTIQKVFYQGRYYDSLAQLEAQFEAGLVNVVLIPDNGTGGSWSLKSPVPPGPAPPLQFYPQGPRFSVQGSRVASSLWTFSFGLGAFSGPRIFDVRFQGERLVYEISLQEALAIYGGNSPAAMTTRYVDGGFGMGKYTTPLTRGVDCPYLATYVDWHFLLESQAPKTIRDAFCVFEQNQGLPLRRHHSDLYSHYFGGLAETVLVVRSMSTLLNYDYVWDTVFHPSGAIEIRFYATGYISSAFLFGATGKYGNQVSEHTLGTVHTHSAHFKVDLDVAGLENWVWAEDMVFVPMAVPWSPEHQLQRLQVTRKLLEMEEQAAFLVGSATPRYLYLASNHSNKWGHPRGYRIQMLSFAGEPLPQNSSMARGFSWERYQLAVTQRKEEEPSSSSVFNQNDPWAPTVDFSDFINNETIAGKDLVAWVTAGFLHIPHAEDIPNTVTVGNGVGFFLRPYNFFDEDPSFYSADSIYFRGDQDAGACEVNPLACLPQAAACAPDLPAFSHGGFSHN
Sequence of UniProt P35626 (whole entry, looked up): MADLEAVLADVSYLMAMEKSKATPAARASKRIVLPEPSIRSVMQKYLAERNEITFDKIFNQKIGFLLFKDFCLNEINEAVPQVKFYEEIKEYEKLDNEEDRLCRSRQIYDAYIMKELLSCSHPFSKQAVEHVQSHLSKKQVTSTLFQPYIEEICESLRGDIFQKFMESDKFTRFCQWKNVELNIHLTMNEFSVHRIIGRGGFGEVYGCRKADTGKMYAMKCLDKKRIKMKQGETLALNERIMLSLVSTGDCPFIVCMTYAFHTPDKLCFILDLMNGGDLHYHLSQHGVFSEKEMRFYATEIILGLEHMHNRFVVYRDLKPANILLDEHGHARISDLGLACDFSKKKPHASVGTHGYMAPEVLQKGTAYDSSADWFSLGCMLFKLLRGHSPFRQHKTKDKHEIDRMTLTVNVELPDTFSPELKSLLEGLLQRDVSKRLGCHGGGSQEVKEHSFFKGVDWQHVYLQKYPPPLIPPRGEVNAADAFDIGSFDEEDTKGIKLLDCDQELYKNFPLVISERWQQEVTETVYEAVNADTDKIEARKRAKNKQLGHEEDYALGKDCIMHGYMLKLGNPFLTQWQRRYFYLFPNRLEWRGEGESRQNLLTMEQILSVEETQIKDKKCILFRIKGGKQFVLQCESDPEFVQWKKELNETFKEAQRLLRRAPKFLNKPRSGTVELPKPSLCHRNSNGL
Sequence of UniProt O70423 (whole entry, looked up): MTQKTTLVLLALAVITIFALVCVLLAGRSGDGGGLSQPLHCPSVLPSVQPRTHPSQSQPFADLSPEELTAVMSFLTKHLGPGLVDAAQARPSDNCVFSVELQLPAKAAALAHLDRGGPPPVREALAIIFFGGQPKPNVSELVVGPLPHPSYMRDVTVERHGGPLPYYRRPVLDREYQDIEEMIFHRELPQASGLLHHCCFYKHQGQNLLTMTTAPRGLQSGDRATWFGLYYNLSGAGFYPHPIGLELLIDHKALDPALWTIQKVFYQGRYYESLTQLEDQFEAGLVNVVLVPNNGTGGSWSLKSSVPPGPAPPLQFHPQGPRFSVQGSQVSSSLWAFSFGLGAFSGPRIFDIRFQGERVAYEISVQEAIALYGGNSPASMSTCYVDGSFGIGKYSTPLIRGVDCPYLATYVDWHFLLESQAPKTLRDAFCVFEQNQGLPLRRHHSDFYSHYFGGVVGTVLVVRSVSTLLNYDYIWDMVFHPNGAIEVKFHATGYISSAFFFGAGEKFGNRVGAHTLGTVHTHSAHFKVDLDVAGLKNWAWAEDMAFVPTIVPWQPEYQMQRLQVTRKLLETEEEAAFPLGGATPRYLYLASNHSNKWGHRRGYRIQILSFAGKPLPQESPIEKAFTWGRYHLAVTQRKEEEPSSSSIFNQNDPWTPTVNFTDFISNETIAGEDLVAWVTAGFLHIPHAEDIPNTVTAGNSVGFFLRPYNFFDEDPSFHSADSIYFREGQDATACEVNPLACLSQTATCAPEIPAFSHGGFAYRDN
Sequence of UniProt Q16584 (whole entry, looked up): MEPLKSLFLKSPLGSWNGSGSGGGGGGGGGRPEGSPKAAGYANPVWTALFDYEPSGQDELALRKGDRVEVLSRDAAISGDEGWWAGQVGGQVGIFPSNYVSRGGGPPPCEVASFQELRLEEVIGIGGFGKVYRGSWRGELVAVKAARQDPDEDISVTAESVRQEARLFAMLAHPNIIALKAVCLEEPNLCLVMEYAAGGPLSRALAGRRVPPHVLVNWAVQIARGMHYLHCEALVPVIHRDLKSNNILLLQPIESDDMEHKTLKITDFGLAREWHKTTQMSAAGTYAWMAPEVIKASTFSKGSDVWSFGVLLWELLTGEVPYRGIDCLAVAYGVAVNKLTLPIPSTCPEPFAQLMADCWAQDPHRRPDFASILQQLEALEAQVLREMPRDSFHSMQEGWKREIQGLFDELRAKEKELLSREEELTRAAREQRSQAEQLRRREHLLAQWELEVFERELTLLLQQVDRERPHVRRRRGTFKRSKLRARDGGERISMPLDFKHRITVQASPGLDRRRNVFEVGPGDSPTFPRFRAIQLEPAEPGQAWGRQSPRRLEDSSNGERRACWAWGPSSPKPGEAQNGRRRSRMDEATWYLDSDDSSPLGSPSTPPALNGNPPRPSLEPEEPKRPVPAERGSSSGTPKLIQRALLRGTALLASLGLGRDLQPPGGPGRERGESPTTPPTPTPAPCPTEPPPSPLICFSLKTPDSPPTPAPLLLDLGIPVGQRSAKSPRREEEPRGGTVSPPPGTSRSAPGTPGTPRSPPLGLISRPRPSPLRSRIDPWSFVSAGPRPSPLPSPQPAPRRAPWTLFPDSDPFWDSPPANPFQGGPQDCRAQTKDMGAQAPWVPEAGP
Sequence of UniProt O14757 (whole entry, looked up): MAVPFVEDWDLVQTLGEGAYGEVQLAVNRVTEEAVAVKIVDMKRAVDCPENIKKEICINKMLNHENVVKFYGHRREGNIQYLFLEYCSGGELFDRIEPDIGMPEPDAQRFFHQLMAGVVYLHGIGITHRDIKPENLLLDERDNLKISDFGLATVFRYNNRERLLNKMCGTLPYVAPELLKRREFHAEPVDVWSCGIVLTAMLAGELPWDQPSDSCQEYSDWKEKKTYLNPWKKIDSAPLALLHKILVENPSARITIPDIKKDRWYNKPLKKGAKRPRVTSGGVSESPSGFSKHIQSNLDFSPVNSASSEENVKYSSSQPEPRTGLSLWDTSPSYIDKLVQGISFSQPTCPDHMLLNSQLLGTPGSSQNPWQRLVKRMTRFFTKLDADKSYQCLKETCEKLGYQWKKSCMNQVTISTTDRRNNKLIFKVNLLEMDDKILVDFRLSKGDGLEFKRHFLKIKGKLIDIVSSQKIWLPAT

Block 1
Cell line: Gaucher fibroblasts L444P/L444P
Method: 4-MUG hydrolysis, cell lysate
Tested at: 1 µM
Baseline: DMSO
Measurement: GCase activity
Ic1ccc(Nc2nc(NCCc3c[nH]c4ccccc34)nc(NCCN3CCOCC3)n2)cc1: 99.9% and 86.9% and 102% and 98.4% and 89.8%
Ic1ccc(Nc2nc(NCCN3CCOCC3)nc(N3CC4CC3CO4)n2)cc1 (stereo not shown): 96.5% and 103% and 93.3% and 109% and 99.5% and 97.8%
c1ccc(Nc2nc(NCCN3CCOCC3)nc(N3CCOCC3)n2)cc1: 94.5% and 86.6% and 98.7% and 103% and 92.8% and 99.7%
CCOc1ccc2nc(Sc3nc(NCCN4CCOCC4)nc(Nc4ccc(I)cc4)n3)sc2c1: 107% and 106% and 97% and 98.7% and 98.5%
Ic1ccc(Nc2nc(NCCN3CCOCC3)nc(N3CCCCC3)n2)cc1: 109% and 98.8% and 92.5% and 101% and 98.2% and 103%
Ic1cccc(Nc2nc(NCCN3CCOCC3)nc(N3CCOCC3)n2)c1: 111% and 114% and 110% and 109% and 115%
CCOc1ccc2nc(Sc3nc(Nc4ccc(OC)cc4)nc(N4CCOCC4)n3)sc2c1: 117% and 121% and 118%
Ic1ccc(Nc2nc(NCCN3CCCCC3)nc(N3CCOCC3)n2)cc1: 107% and 116% and 112% and 119% and 109%

Block 2
Cell line: MDA-MB-231
Read-out: cell viability
Method: CellCounting-Lite
Tested at: 74.07 nM
Temperature: 37 °C
Direction: higher = more viable cells
Measurement: luminescence signal
CCn1cnc2c(NCc3nc4cc(Cl)c(Cl)cc4[nH]3)nc(N3CCN(C(=O)c4cccnc4)CC3)nc21: 26200 a.u. and 24900 a.u. and 27400 a.u.
CC(=O)N1CCN(c2nc(NCc3nc4cc(Cl)c(Cl)cc4[nH]3)c3ncn(C)c3n2)CC1: 301000 a.u. and 367000 a.u. and 228000 a.u.
CCn1cnc2c(NCc3nc4cc(Cl)c(Cl)cc4[nH]3)nc(N3CCN(Cc4ccncc4)CC3)nc21: 199000 a.u. and 157000 a.u. and 189000 a.u.
CCn1cnc2c(NCc3nc4ccc(F)c(F)c4[nH]3)nc(N3CCn4ncnc4C3)nc21: 314000 a.u. and 300000 a.u. and 275000 a.u.
CCn1cnc2c(NCc3nc4cc(Cl)c(Cl)cc4[nH]3)nc(N3CCN(C(=O)c4ccncc4)CC3)nc21: 82600 a.u. and 77500 a.u. and 58500 a.u.
CCn1cnc2c(NCc3nc4cc(Cl)c(Cl)cc4[nH]3)nc(N3CCN(C(=O)c4ccccn4)CC3)nc21: 24700 a.u. and 19100 a.u. and 18800 a.u.
CCn1cnc2c(NCc3nc4cc(Cl)c(Cl)cc4[nH]3)nc(N3CCN(C(=O)CNC(C)=O)CC3)nc21: 205000 a.u. and 232000 a.u. and 244000 a.u.
CCn1cnc2c(NCc3nc4cc(Cl)c(Cl)cc4[nH]3)nc(N3CCN(c4ccccn4)CC3)nc21: 605000 a.u. and 580000 a.u. and 618000 a.u.

Block 3
SMILES: Cc1ccc2c(c1)OC(O)(C(=O)O)C(=O)N2Cc1ccccc1 (stereo not shown)
Measurement: inhibition
Echinochloa crus-galli; fresh weight; 150 g ai/ha, post-emergence treatment: 38.5% and 42% and 42.3%
Setaria viridis; fresh weight; 150 g ai/ha, pre-emergence treatment: 61.8% and 66.6% and 65.1%
Arabidopsis thaliana; root length; Col-0, seedlings; 100 µg/mL; baseline: water control: 42.4%
Arabidopsis thaliana; root length; Col-0, seedlings; 6.25 µg/mL: 12.4%
Arabidopsis thaliana; hypocotyl length; Col-0; 6.25 µg/mL, 7 days, seed germination, dark: 2.2%
Arabidopsis thaliana; root length; Col-0; 6.25 µg/mL, 7 days, seed germination, dark: 12.4%
Alopecurus japonicus; fresh weight; 150 g ai/ha, pre-emergence treatment: 64.5% and 63.6% and 62.1%
Arabidopsis thaliana; root length; Col-0, seedlings; 3.125 µg/mL; baseline: water control: 10.2%
Triticum aestivum; fresh weight; soil surface spray, 150 g ai/ha, 21 days, pre-emergence crop safety: 16.9% and 16.2% and 15.8%
Arabidopsis thaliana; hypocotyl length; Col-0; 50.0 µg/mL, 7 days, seed germination, dark: 21.5%
Arabidopsis thaliana; hypocotyl length; Col-0, seedlings; 25 µg/mL: 12.9%
Arabidopsis thaliana; root length; Col-0; 3.13 µg/mL, 7 days, seed germination, dark: 10.2%
Arabidopsis thaliana; root length; Col-0, seedlings; 12.5 µg/mL; baseline: water control: 17%
Eclipta prostrata; fresh weight; 150 g ai/ha, post-emergence treatment: 60.4% and 55.9% and 54.6%

Block 4
SMILES: CCN1/C(=C/C=C2\CCCC(/C=C/C3=[N+](CC)c4ccccc4C3(C)C)=C2NCCCCCCCCN2CCC(Nc3nc4ccccc4n3Cc3ccc(F)cc3)CC2)C(C)(C)c2ccccc21
Cell line: U-87 MG
Tested at: concentration not given
Baseline: DMSO
Measurement: log2 fold change
item: UFM1 mRNA: 1.15
item: VPS37A mRNA: 0.932
item: HES7 mRNA: 2.76
item: PLEC mRNA: -1.35
item: SH3BGR mRNA: 2.51
item: TESK2 mRNA: 1.17
item: MOK mRNA: -1.92
item: C1orf94 mRNA: -1.56
item: DBP mRNA: -1.6
item: NCAPH mRNA: -1.61
item: FANCM mRNA: -1.31
item: CSRNP3 mRNA: -1.77

Block 5
SMILES: C[C@@H]1CN(c2ccc(-c3cc(C(=O)NCCOCCOCCOCCOCCNC(=O)/C=C/c4[nH]cc(C(=O)N[C@@H](CC(N)=O)c5ccc(F)c(Cl)c5)c4-c4ccc(Cl)cc4F)ccc3F)cc2NC(=O)c2c[nH]c(=O)cc2C(F)(F)F)C[C@H](C)N1C
Read-out: thermal unfolding
Method: differential scanning fluorimetry
Tested at: 5.5 µM
Direction: higher = more unfolded
Measurement: SYPRO Orange fluorescence
DCAF1: DDB1- and CUL4-associated factor 1 (DCAF1, Homo sapiens, UniProt Q9Y4B6)
Sequence of UniProt Q9Y4B6 (whole entry, looked up): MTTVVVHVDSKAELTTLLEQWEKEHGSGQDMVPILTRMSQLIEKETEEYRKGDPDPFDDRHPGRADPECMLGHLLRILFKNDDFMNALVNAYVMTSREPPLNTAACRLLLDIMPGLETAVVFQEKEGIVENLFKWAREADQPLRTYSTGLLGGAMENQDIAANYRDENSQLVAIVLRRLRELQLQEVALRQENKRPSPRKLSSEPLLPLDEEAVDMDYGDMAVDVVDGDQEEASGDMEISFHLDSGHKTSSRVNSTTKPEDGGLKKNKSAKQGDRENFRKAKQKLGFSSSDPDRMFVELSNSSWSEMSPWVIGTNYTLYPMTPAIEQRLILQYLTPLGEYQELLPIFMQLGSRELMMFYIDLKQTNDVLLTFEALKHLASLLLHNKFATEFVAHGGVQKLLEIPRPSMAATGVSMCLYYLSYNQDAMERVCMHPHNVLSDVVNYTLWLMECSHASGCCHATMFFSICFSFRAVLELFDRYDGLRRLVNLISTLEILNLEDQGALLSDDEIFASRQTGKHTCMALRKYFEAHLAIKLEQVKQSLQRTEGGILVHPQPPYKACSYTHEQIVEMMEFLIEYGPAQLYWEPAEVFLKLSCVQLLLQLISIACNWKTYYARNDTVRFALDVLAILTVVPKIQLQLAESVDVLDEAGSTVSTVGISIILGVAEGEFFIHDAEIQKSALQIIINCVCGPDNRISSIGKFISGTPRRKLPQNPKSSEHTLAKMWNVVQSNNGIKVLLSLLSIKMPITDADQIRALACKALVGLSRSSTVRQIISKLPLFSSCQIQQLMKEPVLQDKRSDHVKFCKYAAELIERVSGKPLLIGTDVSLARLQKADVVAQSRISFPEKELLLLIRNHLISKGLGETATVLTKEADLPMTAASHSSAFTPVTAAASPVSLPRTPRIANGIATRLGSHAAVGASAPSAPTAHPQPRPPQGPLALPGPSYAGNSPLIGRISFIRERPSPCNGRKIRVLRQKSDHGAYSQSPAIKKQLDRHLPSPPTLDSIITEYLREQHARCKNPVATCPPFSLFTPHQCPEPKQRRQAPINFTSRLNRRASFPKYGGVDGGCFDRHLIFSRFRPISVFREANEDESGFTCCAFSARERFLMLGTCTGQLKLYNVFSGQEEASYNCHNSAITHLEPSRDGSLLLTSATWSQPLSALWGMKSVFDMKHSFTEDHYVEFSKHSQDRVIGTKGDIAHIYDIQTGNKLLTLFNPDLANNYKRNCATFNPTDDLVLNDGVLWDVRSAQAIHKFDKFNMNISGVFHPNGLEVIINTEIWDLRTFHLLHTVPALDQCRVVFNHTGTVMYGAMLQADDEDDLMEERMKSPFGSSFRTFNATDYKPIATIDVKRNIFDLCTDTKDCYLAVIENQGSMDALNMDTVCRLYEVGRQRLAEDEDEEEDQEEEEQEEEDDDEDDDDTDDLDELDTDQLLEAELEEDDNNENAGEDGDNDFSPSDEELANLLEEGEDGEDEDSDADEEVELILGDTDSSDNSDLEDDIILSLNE
WDR5: WD repeat-containing protein 5 (WDR5, Homo sapiens, UniProt P61964)
DCAF1; 70.21 °C: 55600 a.u.
WDR5; 82.01 °C: 46000 a.u.
WDR5; 57.41 °C: 16400 a.u.
WDR5; 85.81 °C: 53200 a.u.
DCAF1; 69.21 °C: 56800 a.u.
DCAF1; 35.4 °C: 10300 a.u.
DCAF1; 39.6 °C: 11400 a.u.
DCAF1; 59.61 °C: 38800 a.u.
DCAF1; 49.4 °C: 14800 a.u.
DCAF1; 60.21 °C: 41700 a.u.
WDR5; 81.21 °C: 43900 a.u.

Block 6
SMILES: Cc1ncsc1-c1ccc(C(CO)NC(=O)C2CC(O)CN2C(=O)C(NC(=O)c2ccc(COc3c(-c4c(C)c(F)cc5[nH]ncc45)c(C4CC4)cc4c(N5CC6CC5CN6)nc(OC5CCOCC5)nc34)cc2)C(C)C)cc1 (stereo not shown)
Time: 6 days
Measurement: viability
AsPC-1; CellTiter-Glo; 3 µM: 5.66% and 5.08% and 4.37%
ASPC1; cell growth or viability, ATP luminescence; 0.1 µM: 77.7% and 43.2% and 44.6% and 61.4% and 42% and 80.1%
AsPC-1; CellTiter-Glo; 30 nM: 85.2% and 76.7% and 85%
ASPC1; cell growth or viability, ATP luminescence; 1 nM: 72.5% and 88% and 75.4% and 92.2% and 89.3% and 95.4%
ASPC1; cell growth or viability, ATP luminescence; 10 nM: 80.6% and 88% and 94.2% and 86.4% and 87.5% and 80.1%
ASPC1; cell growth or viability, ATP luminescence; 300 pM: 82.2% and 91.4% and 87.7% and 87.6% and 88.7%

Block 7
SMILES: COc1cc(-c2nc3ccc(C(=O)NCCCN4CCN(c5cccc(C)c5C)CC4)cc3n2C2CCC2)cc(OC)c1OC
Read-out: binding
Method: competition with immobilised ligand
Tested at: 1 µM
Measurement: remaining binding
TAOK3 (Homo sapiens, UniProt Q9H2K8): 84%
MAP3K11 (Homo sapiens, UniProt Q16584): 100%
CDK15 (Homo sapiens, UniProt Q96Q40): 98%
CHEK1 (Homo sapiens, UniProt O14757): 82%
FLT3 (Homo sapiens, UniProt P36888, D835Y): 93%
EGFR (Homo sapiens, UniProt P00533, L858R/T790M): 77%
SNRK (Homo sapiens, UniProt Q9NRH2): 95%
ROS1 (Homo sapiens, UniProt P08922): 95%
PAK6 (Homo sapiens, UniProt Q9NQU5): 95%
CHEK2 (Homo sapiens, UniProt O96017): 100%
GRK3 (Homo sapiens, UniProt P35626): 100%
Tyrosine-protein kinase ABL1, non-phosphorylated (ABL1, Homo sapiens, UniProt P00519, H396P): 74%
STK32B (Homo sapiens, UniProt Q9NY57): 78%

Block 8
Target: E3 ubiquitin-protein ligase NEDD4 (Homo sapiens, UniProt P46934)
Read-out: enzyme activity
Action: inhibitor
Method: TR-FRET
Measurement: IC50
Construct (P46934 938-1319, limits assumed): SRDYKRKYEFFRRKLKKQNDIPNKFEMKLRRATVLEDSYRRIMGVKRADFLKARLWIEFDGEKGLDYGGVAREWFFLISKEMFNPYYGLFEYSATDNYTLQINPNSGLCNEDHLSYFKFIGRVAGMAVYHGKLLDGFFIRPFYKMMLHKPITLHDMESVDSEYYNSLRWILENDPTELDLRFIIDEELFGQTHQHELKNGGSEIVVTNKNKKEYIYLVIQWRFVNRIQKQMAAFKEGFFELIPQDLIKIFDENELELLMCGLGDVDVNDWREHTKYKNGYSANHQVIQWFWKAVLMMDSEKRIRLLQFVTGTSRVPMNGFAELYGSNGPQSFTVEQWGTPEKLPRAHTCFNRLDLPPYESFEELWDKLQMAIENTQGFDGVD
CCOC(=O)/C=C/CNCCCCN1c2cc(Cl)ccc2COc2ccccc21: 900 nM
CONC(=O)/C=C/CNCCCCN1c2ccccc2CCc2ccc(Cl)cc21: 1050 nM
CCOC(=O)/C=C/CNCCCCN1c2cc(Cl)ccc2C(=O)N(C)c2ccccc21: 1650 nM

Other studies, line by line
CS(=O)(=O)c1ccc(OC/C(=C/F)CN)cc1  IC50 (Amine oxidase [copper-containing] 3 (Mus musculus, UniProt O70423); enzyme activity; mouse adipose tissue): 3 nM
C=C(CN)COc1cccc(Cn2c(=S)[nH]c(=O)c3[nH]cnc32)c1  remaining activity (AOC3 (Homo sapiens, UniProt Q16853); dilution jump; concentration not given; baseline: DMSO control): 79.1% and 79.4% and 80.7%
NCc1ccc(Cn2cc(Cc3cc(N)nc4[nH]nnc34)cn2)cc1  inhibition (Myeloperoxidase (MPO, Homo sapiens, UniProt P05164); enzyme activity, inhibitor, fluorescence; 500 pM): -0.29%
NC/C(=C\F)COc1cccc(Cn2c(=S)[nH]c(=O)c3[nH]cnc32)c1  remaining compound (human liver microsomes; 60 min): 88.2% and 76.7% and 72.8% and 76.2% and 77.2% and 58%
